Measurements gathered from unrelated publications.
Each numbered part is a random draw from the data of one study; scales do not carry over between parts. Changes are numbered by the printed parent chain.

Block 1
Target: CCNB2, cyclin fold, Cln2 fusion (human)
Technique: yeast growth competition, sequencing
Sample: yeast
Setting: weak parent motif
Reference: not given
Direction: higher = stronger binding
Parent: SAMHD1 docking peptide (human); ASKSRVQLFKDDP; partner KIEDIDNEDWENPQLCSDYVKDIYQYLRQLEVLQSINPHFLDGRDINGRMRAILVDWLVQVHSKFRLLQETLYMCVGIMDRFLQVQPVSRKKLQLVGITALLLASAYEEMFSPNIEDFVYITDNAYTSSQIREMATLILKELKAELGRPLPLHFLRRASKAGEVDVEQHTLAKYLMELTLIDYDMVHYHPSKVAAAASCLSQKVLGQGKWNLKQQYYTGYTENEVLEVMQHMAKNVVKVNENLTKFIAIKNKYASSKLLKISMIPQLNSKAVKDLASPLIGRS
| Substitution | normalised enrichment score |
| --- | --- |
| S2G | 0.0678 |
| S2R | 0.233 |
| S4V | 0.86 |
| V6W | -0.24 |
| D11R | 0.0788 |
| S4D | 0.0843 |
| S4Y | 0.421 |
| R5S | -0.579 |
| F9Q | 0.0403 |
| V6Y | -0.0571 |
| F9A | 0.0693 |
| K10R | 0.315 |
| Q7M | -0.383 |
| Q7W | 0.204 |

Block 2
Target: RNA binding protein fox-1 homolog 2, RRM domain, GST-SBP tag (RBFOX2, Homo sapiens, UniProt O43251-10, residues 100-194)
Technique: RNA Bind-n-Seq
Form: RNA
Sample: in vitro
Concentration: 365 nM
Setting: natural RNA segment, single round, ends assumed
Reference: no-protein control
Direction: higher = stronger binding
All sequences stand within: GGGAGUUCUACAGUCCGACGAUC … UGGAAUUCUCGGGUGCCAA
Target sequence (chain): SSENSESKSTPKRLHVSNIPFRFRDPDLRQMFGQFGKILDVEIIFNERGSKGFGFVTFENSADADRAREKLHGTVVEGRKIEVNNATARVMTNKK
| Oligonucleotide | RBNS enrichment (R) |
| --- | --- |
| UGUGUGAAAAAGAUGCCAAUUAUUGUUACACAUUAAGUAAUCAAUAAAGAAAACUUCCAUAGCUAUUCAUUGAGUCAAAUUGUAAUGUGCUUUACCAAACAAGGUAUUUG | 0.324 |
| GAUAAUUUGCAUACUCUAUUGUAUUAUUUGGAGUUAAAUCCUCACUUUGGGGGAGGGGGGAGCAAAGCCAAGCAAACCAAUGAUGAUCCUCUAUUUUGUGAUGACUCUGC | 0.903 |
| GCCCAGGCUCCAGCUCGCCUCCAGUGGAAGCCCGAGCGCCCUCAGAAACGACCCUGGCCAAUGUCAACGCAGAGCCGAGGCGGUGUUGUCACGGCUAAUGUGAAAUCUCU | 0.515 |
| UCAAAAAAUCAGGUAGCAGUCCUAAAUGGACUCAUGACAAAUACCAAGGGGAUGGGAUUGUUGAAGAUGAAGAAGAGACCAUGGAAAAUAAUGAAGAAAAGAAGGACAGA | 0.83 |
| AUACCAGCUAGGUCAGGGGGUGGGGAAAACACAUACAAAAAGGCAAGCCCAUGUCAGGGCGAUCCUGGUUCAAAUGUGCCAUUUCCCGGGUUGAUGCUGCCACACUUUGU | 0.383 |
| GAAAACCUGAUUUUCAUCUCGUACUACCAAGCUUUACAACAUUGAAAGUGGCCUAGUAACUCUGAGUAUUUUAAAGAAUGCUUUAUCAUUUUUUAAAGAUGUCAAGAAAC | 0.304 |
| AAAAUAAUCAGUAUGGUUUAUAUGUUGAAUUUGACAUUUGUGUGUAAUUUCAUGGUGGCCUAGUGUUGUGGUGCUUCUGGUAAUGGUAAUAGAAGCUCAACUAUUUUUUU | 1.05 |
| CUGGGGCAGGGGUCAGCCACUGUCCCAAUCAGUCCUUUCUGAAGGAGAAACCCAUUCCACAUUAACAAAUUUAUUACAGUACAGGGAACAUGGAAUAAAGGAAAGUUUAC | 0.377 |
| AUCAACUUUUAACAGCCCACUCACUGGCUUUUCUAAACUACCAAAAACCACCUGUAGGAUACUGCAUUAAGUCAGCAUCUCAGAAACAGUGGUGUGAGUAACUGAGUCAA | 0.277 |
| UCCAGGUGUCUGUGUUCCCAGGAACCAAAUGGGGAGUCUGGGGCCCGUUUUCCCCCCAGGGGGUGUCUAGGUAGCAACAGGUAUCGAGGACUCUCCAAACCCCCAAAGCA | 1.74 |
| UAACAUCCUUCCAAUUUUAUUCACAUAUAAUGGGAAAUUUUGAAUUGCCAGUUUGAAGACUGUUCUCCUAAAGUGUUCAACCUGCACUUCUUACAACCAAGGUAGUUUGU | 0.308 |
| AGAAGAGAAGGUGCUCACUAACAGAGGUACAUUACUGCAAUGUUCUCUUAACAGUUAAACAAGCUGUUUACAGUUUAAACUGCUGAAUAUUAUUUGAGCUAUUUAAAGCU | 0.304 |

Block 3
Target: Prothrombin, mature alpha-thrombin (F2, Homo sapiens, UniProt P00734)
Technique: aptamer microarray, sandwich
Form: DNA with 2'F-ANA
Sample: in vitro
Concentration: 200 nM
Setting: whole 15-mer aptamer, many near background
Added: Cy3 exosite-II aptamer, 400 nM
Direction: higher = stronger binding
Oligonucleotide: GGTTGGTGTGGTTGG
| Modification | mean fluorescence intensity [a.u.] |
| --- | --- |
| 2'F-ANA at 3 4 8 10 13 14 | 200 |
| 2'F-ANA at 1 3 4 5 7 8 9 10 11 12 13 14 | 49.3 |
| 2'F-ANA at 3 4 5 6 11 12 | 182 |
| 2'F-ANA at 1 2 3 4 5 8 9 11 12 14 15 | 49.8 |
| 2'F-ANA at 4 5 8 12 13 14 15 | 44.6 |
| 2'F-ANA at 2 3 4 6 8 9 11 12 | 657 |
| 2'F-ANA at 2 3 4 8 9 10 11 12 | 337 |
| 2'F-ANA at 1 4 5 6 9 11 | 49.1 |
| 2'F-ANA at 1 5 7 8 9 11 12 13 15 | 73.7 |
| 2'F-ANA at 4 6 8 10 11 12 13 14 15 | 82.7 |
| 2'F-ANA at 1 3 5 6 7 9 10 11 13 15 | 52.1 |
| 2'F-ANA at 1 3 4 5 6 8 9 10 12 14 15 | 52.9 |
| 2'F-ANA at 2 3 8 9 10 11 13 15 | 303 |
| 2'F-ANA at 3 7 8 | 1460 |
| 2'F-ANA at 1 2 3 4 5 | 57.1 |
| 2'F-ANA at 4 5 7 8 9 10 12 15 | 50.6 |
| 2'F-ANA at 1 3 6 7 9 10 12 13 14 | 64.6 |
| 2'F-ANA at 1 3 7 8 10 11 14 15 | 59.4 |
| 2'F-ANA at 2 5 6 7 10 12 14 15 | 46.3 |

Single results of other studies
| Substance | target | test | system | conditions | scale | endpoint | result |
| --- | --- | --- | --- | --- | --- | --- | --- |
| PhoQ, residues 284 288 289 292 302 303 ASTSDA | PhoP, residues 12 14 15 18 19 QQAYL (Escherichia coli, UniProt P23836) | Sort-seq, item: YFP reporter | E. coli | PhoQ-PhoP variant library, added: 10 µM Mg2+ | reference: high Mg2+ state, higher = stronger signaling | fold induction | 14.9 |

A few entries again (block 3):
| Modification | mean fluorescence intensity [a.u.] |
| --- | --- |
| 2'F-ANA at 2 3 4 8 9 10 11 12 | 337 |
| 2'F-ANA at 1 4 5 6 9 11 | 49.1 |
| 2'F-ANA at 1 5 7 8 9 11 12 13 15 | 73.7 |
| 2'F-ANA at 4 6 8 10 11 12 13 14 15 | 82.7 |
| 2'F-ANA at 1 3 5 6 7 9 10 11 13 15 | 52.1 |
